Results pooled from the literature.
Every numbered part comes from another study and shows a few of its results, in no order.

Study 1
Target: RNA binding protein fox-1 homolog 2, RRM domain, GST-SBP tag (RBFOX2, Homo sapiens, UniProt O43251-10, residues 100-194)
Technique: RNA Bind-n-Seq
Form: RNA
Sample: in vitro
Concentration: 365 nM
Setting: natural RNA segment, single round, ends assumed
Baseline: no-protein control
Direction: higher = stronger binding
Target sequence (chain): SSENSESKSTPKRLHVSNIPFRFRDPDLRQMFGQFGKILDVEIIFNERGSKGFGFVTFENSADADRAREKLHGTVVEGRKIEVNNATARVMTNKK
Sequence | RBNS enrichment (R)
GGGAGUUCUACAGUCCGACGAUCUUUAUAUUAGUGUAAAUAGAAAAUCUAUAGACAACUUUCUAGUUUUCUCUGGAGGCAUUUUUGGGAAUGUACGUGUAAUAGGCUCUGCUUUGUAUACAGGAGAUAAUACCUGGAAUUCUCGGGUGCCAA | 0.598
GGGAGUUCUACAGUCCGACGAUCAGUCUGCCUACAACAGCUACAGCUGGGGGGCCAACUGGGCCCUGACCCUCUUCUCCCGGUCCCAUCUUCUGAGAGGGCUUCUCAGCCUGGAAACUAUGGAAACAGCAUCAUGGAAUUCUCGGGUGCCAA | 0.329
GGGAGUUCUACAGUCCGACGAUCGGAAUUGUGCCUACUUAGGAGUGCCCCUCCAAUUAAUUACAUGUGUCCAAGAAUAAUCCAAGCUAGAGACACAAGGUGGGAAAACAUUUCAAAAAAAAAAAGUCCUCUUAUGGAAUUCUCGGGUGCCAA | 0.49
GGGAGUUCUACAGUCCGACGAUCAUUAAAAGAUGAUGCUAUUACAACUAGCAUUGCCUCAAAAACUGGGACCAACCAAAGUGUGUCAACCCUGUUUCCUUAAAAGAGGCUAUGAAUCCCAAAGGCCACAUCCAUGGAAUUCUCGGGUGCCAA | 0.313
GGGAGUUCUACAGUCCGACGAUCUACUGACCAUAGCAUGUGACACUCAGACUUCUCAGCUCCUGUGCAUCCCAGUGUAGGCUCUGAGGCCACAUGGAAACUCUAGAUGGUUCUGAUCACUCUAGCCACCGGAGUGGAAUUCUCGGGUGCCAA | 6.52
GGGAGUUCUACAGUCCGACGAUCGUAUAGAAGUCUUCAUGAAAUGCUAUGUCAUUUCAUGUCCUGUGUCAGUUUAUGUUUUGGUCCACUUUUCCAGUAUUUUAGUGGACCCUGAAAUGUGUGUGAUGUGACAUUGGAAUUCUCGGGUGCCAA | 0.538
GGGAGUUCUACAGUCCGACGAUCUAAACCCAGUGUCAGGUCUAGGAAAUUAAUGGCUAUUCUUCCCCAGAUACAUUCUGGCUUAUUUGAGAUACAUGAUUCUCUUAGAAUCCUGUCCCUUGGUUCAGGAAAGUUGGAAUUCUCGGGUGCCAA | 0.278
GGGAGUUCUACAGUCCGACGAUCAAAAGGAGAUGCCCAAUAUUCAAAGCUGCUAAAUGUUCUCUUUGCCAUAAAGACUCCGUGUAACUGUGUGAACACUUGGGAUUUUUCUCCUCUGUCCCGAGGUCGUCGUCUGGAAUUCUCGGGUGCCAA | 0.45
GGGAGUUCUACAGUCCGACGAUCAAAUGGGGCCACCUCUUGCCAGCAGUAGCAGGGCUGCCCACGCCCCUUUCUCCCCAUGCCCCAUCCAGCACUUGGGCGACUCAUGCCUCUGCCUCAGUGGGCCUGUGGGAUGGAAUUCUCGGGUGCCAA | 0.383
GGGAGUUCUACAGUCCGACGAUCGGCAGCAGAAGGGACUGGUGUAUCCUUAUAGACACUUUUCUAUGAACUCUUCAAAAAUGGUCACAGAAUGCCUUUUAAAAUACUGUAUAUAGUCUUCACUGCUUCACCUUUGGAAUUCUCGGGUGCCAA | 0.627
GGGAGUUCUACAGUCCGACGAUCAUCUGAAGAACACAGUAUCAUGACUCGGGUGGAAAGGGAGGCAGAAGCCAUUUUUCUUUUAGAUGAAAAGCAUUCUGUGUGAUUGUUGUAUAAUAAAUUGAUUUUUACACUGGAAUUCUCGGGUGCCAA | 0.733
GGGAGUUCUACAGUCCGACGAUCAAAAUAAGAAAGCUAUGAAGUAAAUGUUAACUUCUCUGUAGCAGCUAAUGCAUAGAGACACUAAAACCCACACCACAUUUUGUGGGAAAUGAGGAUCCUGAUCCUCUUUUUGGAAUUCUCGGGUGCCAA | 0.445

Study 2
Target: Interferon regulatory factor 3, full length, phosphomimetic (IRF3, Homo sapiens, UniProt Q14653, residues 1-427, S386D/S396D/S398D/S402D/T404D/S405D)
Sequence of UniProt Q14653 (whole entry, unmodified, looked up): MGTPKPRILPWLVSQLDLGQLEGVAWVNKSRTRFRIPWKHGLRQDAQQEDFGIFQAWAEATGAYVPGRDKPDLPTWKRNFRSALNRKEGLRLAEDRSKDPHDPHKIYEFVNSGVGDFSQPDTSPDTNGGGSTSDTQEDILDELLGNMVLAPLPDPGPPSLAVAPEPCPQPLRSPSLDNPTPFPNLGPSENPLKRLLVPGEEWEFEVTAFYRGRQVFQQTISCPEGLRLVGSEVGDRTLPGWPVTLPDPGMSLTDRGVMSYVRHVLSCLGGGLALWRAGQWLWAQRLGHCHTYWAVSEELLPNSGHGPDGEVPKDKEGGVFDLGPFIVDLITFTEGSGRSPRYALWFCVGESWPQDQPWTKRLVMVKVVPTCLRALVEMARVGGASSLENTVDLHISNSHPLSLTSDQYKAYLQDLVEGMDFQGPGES
Technique: protein-binding microarray
Form: double-stranded DNA, one strand shown
Sample: in vitro
Concentration: 2540 nM top
Setting: 60-bp whole probe
Together with: salmon DNA 0.4 mg/ml
Baseline: random background probes
Direction: higher = stronger binding
Constant ends, left off below: GCCTAGCAC … GTCTTGATTCGCTTGACGCTGCTG
Sequence | fitted relative affinity [z-score]
GACGGTTTCGGTTTTGGGACGTGCTAG | 9.42
TCAGATTTCGGGTTTCGATTAGTGCTA | 3.45
TTAGGTTTCATTTCCCTTTAGTGCTAG | 6.44
TTAGATTTGAGTTTCGATTAGTGCTAG | 2.8
GAAGGTCTCGGACTGGGGACGTGCTAG | -0.659
TGTGCTTTCCTGATGACCCTGTGCTAG | 1.24
TCATGAAGCGCTTCTCGAACTGTGCTA | -0.165
CTTTACATGGGTTTTCAGCTGGTGCTA | 0.432
GACAATATCAGTCTCGAGACGTGCTAG | 1.23
TTAGGTTTCGACTTTCCGTTAGTGCTA | 3.92
GACGGTATCGGTACTGGGGACGTGCTA | 3.53
TTCGATATCAGTATCGATTAGTGCTAG | 1.98
TTAGGTCTCCTCATCCTTTAGTGCTAG | 0.58
CTGAGAATGGGGTTTGCAGCCGTGCTA | -1.02
GACGAAGTGGGGTTTCGAGACGTGCTA | 0.331
TTAGATTACGGGTATCGATTAGTGCTA | 0.416

Study 3
Target: Fragile X messenger ribonucleoprotein 1, C-terminal low-complexity region (Fmr1, Mus musculus, UniProt P35922)
Technique: RNA Bind-n-Seq
Form: RNA
Sample: in vitro
Concentration: 200 nM
Setting: whole 134-nt RNA, ends assumed
Together with: 150 mM LiCl
Baseline: input library
Direction: higher = stronger binding
Library: 7-deaza-guanosine replaces G
Sequence | log2 enrichment
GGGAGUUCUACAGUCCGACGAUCUCCAGCCACUCACCGGCGAUCCAGGUCCAGAACCCCCCUGAUAAGCCGACGUAGGUCCAGAUCUCGAACUUCACCAGUCAGCCGGAGACGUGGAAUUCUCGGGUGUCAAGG | 1.24
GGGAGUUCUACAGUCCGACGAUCCUCAAGUCCUGUGCUACACAUCGUAUGUACCGAAUCGGAAAAAAAGGAGGUGGAAAGUAUUAUGUUACGCCGUUCGGAUCUGCACUUCCAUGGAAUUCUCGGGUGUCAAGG | -0.732
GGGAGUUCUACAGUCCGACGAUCUGGGAGCUGGAUUUUGUUUAUUUUUUUAGCUCAUUUCCAGGGGUGGGAAUUUUUUUUUAAUAUGUGUCAUGAAUAAAGUUGUUUUUGAAAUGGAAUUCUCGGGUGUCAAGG | -0.881
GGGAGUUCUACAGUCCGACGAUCUAAGUUUAGAGGAGGAUCUGAUGGAUAUGGCAGUGGACGUGGAUUUGGGGAUGGCUAUAAUGGGUAUGGAGGAGGACCUGGAGGUGGCAAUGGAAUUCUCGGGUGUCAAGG | 0.224
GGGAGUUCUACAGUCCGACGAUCUCCUGUGCUACACAUCGUAUGUACCGAAUCAAAUUUUUUUAAAUUUUUAAAUUUUUAAAAAAGUAUUAUGUUACGCCGUUCGGAUCUGCAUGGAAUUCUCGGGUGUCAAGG | -2.46
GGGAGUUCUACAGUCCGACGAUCCAAGUCCUGUGCUACACAUCGUAUGUACCGAAUCGGGGCCCGGGCCCGGGCCCGGAAAGUAUUAUGUUACGCCGUUCGGAUCUGCACUUCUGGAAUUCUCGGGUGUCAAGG | -1.52
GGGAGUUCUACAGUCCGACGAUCUAACUUUAGAGGAGGAUCUGAUGGAUAUGGCAGUGGACGUGGAUUUGGGGAUGGCUAUAAUGGGUAUGGAGGAGGACCUGGACGUGGCAAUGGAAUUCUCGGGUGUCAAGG | 0.153
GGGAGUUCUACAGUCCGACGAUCCCUGUGCUACACAUCGUAUGUACCGAAUCGGGGUUUUUGGGGAAAGGGGAAAAAAAGGGGAAAGUAUUAUGUUACGCCGUUCGGAUCUGCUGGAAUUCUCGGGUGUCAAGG | -0.0104
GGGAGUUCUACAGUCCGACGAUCACAAGUGGAGGAGAAGAACUUAGAAGAACUAGAGGAGAAAUCUACUACUCCUCCUCCGGCAGAACCUGUUUCUCUGCCACAAGAACCACCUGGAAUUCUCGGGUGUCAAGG | 1.36
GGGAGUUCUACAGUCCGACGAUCUCCUGUGCUACACAUCGUAUGUACCGAAUCGGGGAGGGGUUUUUUUGGGGUUUUUGGGGAAAGUAUUAUGUUACGCCGUUCGGAUCUGCAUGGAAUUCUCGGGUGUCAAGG | 0.301
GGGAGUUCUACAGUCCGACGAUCCUCAAGUCCUGUGCUACACAUCGUAUGUACCGAAUCGGGGUUGGUUGGGGUUGGAAAGUAUUAUGUUACGCCGUUCGGAUCUGCACUUCCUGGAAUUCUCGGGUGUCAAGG | -0.532

Study 4
Target: RING finger protein unkempt homolog, zinc fingers 1-6, GST-SBP tag (UNK, Homo sapiens, UniProt Q9C0B0, residues 30-357)
Technique: RNA Bind-n-Seq
Form: RNA
Sample: in vitro
Concentration: not given
Setting: RNA with constant flanks, human and mouse sites, ends assumed
Baseline: input RNA pool
Direction: higher = stronger binding
Target sequence (chain): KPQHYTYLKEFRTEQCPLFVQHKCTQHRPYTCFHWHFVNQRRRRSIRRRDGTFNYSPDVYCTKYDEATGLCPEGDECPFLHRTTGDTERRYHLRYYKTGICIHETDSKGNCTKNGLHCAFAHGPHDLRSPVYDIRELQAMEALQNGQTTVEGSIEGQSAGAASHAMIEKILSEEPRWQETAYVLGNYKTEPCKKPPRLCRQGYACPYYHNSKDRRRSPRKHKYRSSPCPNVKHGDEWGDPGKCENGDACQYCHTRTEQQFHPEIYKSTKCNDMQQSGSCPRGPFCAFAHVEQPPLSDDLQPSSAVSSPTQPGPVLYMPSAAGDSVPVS
Sequence | bound/input enrichment [ratio]
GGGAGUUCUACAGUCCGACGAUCCUUACCUCUUACAAAAAAAAGAAAAAAAAAGAAAAAGUUCAUUUCUUCAUUCUGUUUGUAUCUAGCGAAGCUGAAUGUCAGAAGCCCCUCUGUCCACACACAAAGUCUGCAUGUAUUGGUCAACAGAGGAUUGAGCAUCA | 0.414
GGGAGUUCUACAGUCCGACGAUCUCUCUCCUCCUAAGUUACGGGGCAGAUCCAACCCUGCUGAACUGUCACAAUAAAAGUGCUAUAGACCUGGCCCCCACGGCACAGCUGAAGGAAAGAUUAUCGUAUGAAUUUAAAGGCCAUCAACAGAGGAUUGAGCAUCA | 0.165
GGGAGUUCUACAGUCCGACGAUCACCCCCAUGGUCCCUAUCUGUAGUCAGACUGUGCUGGCUGGGUCUCUGCAGGGAACCUGUUAUAGCAGGUUUGUGGUGACCUUGGAGGGAGGGUCUGCCAGCAGAGAAUACAGUGCGCUUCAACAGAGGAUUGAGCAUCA | 0.151
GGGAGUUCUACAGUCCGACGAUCGAUAUUCAUUUGAAUGAAAUGGCUGGAGACAUCUUAGUUUUUCUGACUGGCCAGUUUGAGAUAGAGAAGAGUUGCGAGCUGCUCUUUCAGAUGGCGGAGUCUGUUGACUAUGAUUAUGAUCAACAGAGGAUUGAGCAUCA | 0.38
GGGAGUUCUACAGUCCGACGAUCCUGUGGUGUGUGAAAGAGAGAAGAAAAACUGGAAAUCUUAUUCCGUGUGUGUUUGGGAGUUGCUUGGGGUUGGGGGUCGUGGGGACAGGGGACAGCUCUGGGAGCAGAGGUGGCCCUCGGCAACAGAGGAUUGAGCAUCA | 0.589
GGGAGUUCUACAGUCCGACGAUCGGAGCUGCCCCUCCCGUCACAUCAGAACCUUGGAAGCUGCUGCUGCUGCUUACAGAAUUAUAUUUUUUUCUUUUGAAGAGUUUUAAGAAGUUGUAACUUUUUGUGUCUUGUCAUGUCAGACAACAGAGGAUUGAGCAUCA | 0.435
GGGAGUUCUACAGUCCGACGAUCAUAGCUUUCCAAAAGAAGCUCUUUCAGACCCUGAGGAGACACCCUUCCUAUCCCAAAAUAAUAGAAGAAUUUGUUAGUGGCCUGGAGUCUUACAUUGAGGAUGAAGACAGUUUCAGGAACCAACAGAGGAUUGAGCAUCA | 4.43
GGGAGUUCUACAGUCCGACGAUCGAUCUGCAGGCGUAUCUCACAGACUUCCUUUGCCAGUUUGCUCAGCAGCCCUGUUACAUAAUGUUUUCAUGCCACCUUAACGACAACGAGAGGCGGGUCCUACAGACUAUCGGCAUCUAACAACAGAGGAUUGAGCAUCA | 0.114
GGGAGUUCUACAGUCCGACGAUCAUGGCCAAUGUGCUUUGUAACAGAGCCAGACUGGUUUCCUAUCUCCCAGGAUUUUGCUCUUUAGUUAAAAGGGUUGUCAAUCCCAAAGCCUUUUCGACUGCAGGAUCAUCAGGUUCGGAUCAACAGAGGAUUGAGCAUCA | 0.124
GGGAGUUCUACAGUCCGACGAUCAGUCGUACUGGCUUGCCCCCGGUAACUGAUGAAAACCAUGUCAUUGUAAAAACGGACAGUCAGCUCGAAGACCUGGGCUACUGUGUGUUCAAUAAGUACACAGUCCCAUUGCCAUCACCUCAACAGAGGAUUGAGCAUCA | 0.046
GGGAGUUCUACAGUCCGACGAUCAGGAAAGCAACCAAGUGGGCACAGUCGGGCCUCAUUGUCAGUGUCGGACCACCAGUGGAAUCCAUCAACCCAGAGACUGUGAGUGGGCUGUCCACAGGUGACAAGAAGAAAACUGCCCAACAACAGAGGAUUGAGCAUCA | 0.131
